# Measurements gathered from unrelated publications.
# ± gives the spread as reported.
# Melanoma-associated antigen 4 MAGE homology domain: Melanoma-associated antigen 4, MAGE homology domain (Homo sapiens, UniProt P43358)
# Chain of UniProt P43358 (whole entry, looked up): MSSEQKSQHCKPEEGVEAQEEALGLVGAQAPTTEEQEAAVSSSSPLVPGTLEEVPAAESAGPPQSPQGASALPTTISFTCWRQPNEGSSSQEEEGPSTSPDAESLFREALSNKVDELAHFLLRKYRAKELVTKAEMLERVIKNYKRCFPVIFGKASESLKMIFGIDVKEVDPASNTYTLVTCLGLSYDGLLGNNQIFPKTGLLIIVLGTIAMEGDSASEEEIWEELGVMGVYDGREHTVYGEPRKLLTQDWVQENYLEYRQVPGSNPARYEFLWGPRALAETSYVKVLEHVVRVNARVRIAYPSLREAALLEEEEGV
# Rhomboid protease AarA: Rhomboid protease AarA (Providencia stuartii, UniProt P46116)
# Chain of UniProt P46116 (whole entry, looked up): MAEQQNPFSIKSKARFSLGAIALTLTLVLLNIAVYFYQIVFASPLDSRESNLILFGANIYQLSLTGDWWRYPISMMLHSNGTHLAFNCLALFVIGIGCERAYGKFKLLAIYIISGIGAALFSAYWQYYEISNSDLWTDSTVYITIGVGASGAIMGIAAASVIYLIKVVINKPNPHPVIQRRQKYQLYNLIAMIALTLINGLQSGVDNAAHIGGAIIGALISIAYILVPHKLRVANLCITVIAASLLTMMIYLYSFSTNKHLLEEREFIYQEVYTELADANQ
# HDAC1: Histone deacetylase 1 (HDAC1, Homo sapiens, UniProt Q13547)
# Chain of UniProt Q13547 (whole entry, looked up): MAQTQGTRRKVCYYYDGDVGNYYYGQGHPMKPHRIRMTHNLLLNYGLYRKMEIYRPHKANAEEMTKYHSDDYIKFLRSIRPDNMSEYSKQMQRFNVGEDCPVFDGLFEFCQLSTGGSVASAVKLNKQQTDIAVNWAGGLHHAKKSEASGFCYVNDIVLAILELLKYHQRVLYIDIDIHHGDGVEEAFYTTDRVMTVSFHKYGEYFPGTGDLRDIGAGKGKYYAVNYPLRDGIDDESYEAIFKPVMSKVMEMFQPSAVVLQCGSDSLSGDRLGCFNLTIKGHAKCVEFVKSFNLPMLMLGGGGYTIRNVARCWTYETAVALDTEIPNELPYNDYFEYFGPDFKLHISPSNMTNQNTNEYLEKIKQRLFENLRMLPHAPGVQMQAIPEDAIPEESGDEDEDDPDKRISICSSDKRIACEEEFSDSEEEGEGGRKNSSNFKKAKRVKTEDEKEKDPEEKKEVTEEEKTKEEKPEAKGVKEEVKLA
# PPARG: Peroxisome proliferator-activated receptor gamma (PPARG, Homo sapiens, UniProt P37231)
# Chain of UniProt P37231 (whole entry, looked up): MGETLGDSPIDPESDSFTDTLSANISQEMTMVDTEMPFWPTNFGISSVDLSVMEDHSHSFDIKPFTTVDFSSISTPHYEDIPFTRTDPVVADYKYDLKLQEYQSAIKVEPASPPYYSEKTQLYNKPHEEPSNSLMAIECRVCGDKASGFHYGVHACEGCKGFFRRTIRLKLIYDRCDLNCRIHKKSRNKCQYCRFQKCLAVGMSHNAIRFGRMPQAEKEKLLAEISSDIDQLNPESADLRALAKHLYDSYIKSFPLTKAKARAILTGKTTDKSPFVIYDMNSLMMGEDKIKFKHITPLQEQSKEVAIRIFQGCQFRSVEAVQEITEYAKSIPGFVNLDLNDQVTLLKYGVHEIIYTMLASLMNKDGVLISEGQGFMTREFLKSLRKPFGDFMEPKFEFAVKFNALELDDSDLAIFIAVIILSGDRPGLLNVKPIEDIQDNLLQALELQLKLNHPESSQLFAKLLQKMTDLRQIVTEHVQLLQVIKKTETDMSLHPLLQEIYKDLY
# PPARG ligand-binding domain: Peroxisome proliferator-activated receptor gamma, ligand-binding domain (PPARG, Homo sapiens, UniProt P37231)
# Chain of UniProt Q12809 (whole entry, looked up): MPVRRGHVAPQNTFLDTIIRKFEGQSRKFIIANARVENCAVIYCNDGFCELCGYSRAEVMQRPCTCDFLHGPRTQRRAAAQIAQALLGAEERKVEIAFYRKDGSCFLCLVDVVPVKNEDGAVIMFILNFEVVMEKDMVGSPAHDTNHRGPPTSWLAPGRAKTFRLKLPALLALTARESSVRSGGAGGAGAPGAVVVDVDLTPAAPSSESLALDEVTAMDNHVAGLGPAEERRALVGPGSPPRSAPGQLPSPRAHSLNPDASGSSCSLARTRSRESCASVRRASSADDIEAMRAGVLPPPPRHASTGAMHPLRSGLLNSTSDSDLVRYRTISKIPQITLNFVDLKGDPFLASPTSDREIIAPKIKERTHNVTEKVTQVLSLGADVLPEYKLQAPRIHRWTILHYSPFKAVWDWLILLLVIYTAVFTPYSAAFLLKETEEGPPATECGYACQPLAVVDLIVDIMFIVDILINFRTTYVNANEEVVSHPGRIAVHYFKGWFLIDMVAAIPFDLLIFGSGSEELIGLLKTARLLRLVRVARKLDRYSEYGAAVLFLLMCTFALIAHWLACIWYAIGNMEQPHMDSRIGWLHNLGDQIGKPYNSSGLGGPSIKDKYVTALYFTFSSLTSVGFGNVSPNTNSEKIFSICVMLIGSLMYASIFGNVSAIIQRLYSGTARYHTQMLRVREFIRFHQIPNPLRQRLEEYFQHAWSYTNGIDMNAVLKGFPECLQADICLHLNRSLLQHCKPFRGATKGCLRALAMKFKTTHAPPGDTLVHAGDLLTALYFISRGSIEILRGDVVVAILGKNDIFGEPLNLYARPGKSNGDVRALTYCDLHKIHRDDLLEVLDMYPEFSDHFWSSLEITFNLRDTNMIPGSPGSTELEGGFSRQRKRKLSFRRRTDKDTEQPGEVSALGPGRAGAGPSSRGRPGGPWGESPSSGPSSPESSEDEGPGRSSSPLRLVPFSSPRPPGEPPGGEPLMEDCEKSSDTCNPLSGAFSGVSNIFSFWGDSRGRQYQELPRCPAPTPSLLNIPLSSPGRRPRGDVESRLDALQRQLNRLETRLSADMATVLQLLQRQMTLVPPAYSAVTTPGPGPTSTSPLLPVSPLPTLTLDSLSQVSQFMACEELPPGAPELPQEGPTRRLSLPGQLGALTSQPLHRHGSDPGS
# Chain of UniProt P51692 (whole entry, looked up): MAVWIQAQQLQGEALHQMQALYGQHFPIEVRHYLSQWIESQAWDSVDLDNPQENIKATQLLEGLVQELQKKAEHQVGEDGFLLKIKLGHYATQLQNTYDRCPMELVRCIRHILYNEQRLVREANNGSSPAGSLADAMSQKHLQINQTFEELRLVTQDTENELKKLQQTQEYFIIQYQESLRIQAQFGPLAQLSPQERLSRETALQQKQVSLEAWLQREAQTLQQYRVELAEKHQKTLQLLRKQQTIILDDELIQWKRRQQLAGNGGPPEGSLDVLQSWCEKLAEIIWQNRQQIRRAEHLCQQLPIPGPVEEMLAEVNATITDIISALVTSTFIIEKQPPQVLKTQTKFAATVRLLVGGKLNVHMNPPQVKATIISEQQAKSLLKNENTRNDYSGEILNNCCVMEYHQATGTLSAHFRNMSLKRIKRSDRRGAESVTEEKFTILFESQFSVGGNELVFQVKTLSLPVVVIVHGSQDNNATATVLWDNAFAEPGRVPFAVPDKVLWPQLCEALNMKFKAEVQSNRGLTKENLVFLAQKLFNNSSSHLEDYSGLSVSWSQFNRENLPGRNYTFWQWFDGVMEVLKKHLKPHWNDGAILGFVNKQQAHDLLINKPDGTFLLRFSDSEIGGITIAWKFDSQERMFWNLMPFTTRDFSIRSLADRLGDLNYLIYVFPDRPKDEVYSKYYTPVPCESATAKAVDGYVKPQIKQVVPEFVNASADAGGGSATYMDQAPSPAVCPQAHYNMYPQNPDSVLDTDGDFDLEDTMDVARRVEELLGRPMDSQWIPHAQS
# Chain of UniProt P08172 (whole entry, looked up): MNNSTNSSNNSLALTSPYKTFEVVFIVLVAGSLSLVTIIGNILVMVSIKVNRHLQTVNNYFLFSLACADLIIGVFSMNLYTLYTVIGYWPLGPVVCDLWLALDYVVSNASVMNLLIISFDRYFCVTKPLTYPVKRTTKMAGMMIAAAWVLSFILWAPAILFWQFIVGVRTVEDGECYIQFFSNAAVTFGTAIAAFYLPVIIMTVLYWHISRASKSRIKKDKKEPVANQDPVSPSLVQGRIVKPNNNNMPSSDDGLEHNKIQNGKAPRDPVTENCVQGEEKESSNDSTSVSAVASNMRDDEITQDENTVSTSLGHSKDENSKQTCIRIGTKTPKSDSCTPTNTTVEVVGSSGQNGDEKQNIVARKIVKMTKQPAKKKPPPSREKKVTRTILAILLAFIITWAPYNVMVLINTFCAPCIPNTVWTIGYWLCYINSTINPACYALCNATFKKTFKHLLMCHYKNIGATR
# Chain of UniProt P00760 (whole entry, looked up): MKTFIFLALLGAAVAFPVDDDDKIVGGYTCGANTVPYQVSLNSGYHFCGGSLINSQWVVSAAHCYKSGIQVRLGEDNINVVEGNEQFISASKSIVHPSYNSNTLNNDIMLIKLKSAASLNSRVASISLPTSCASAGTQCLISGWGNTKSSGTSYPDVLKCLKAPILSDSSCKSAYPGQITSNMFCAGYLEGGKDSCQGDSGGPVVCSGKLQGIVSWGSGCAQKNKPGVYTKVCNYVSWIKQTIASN
# Chain of UniProt P0A988 (whole entry, looked up): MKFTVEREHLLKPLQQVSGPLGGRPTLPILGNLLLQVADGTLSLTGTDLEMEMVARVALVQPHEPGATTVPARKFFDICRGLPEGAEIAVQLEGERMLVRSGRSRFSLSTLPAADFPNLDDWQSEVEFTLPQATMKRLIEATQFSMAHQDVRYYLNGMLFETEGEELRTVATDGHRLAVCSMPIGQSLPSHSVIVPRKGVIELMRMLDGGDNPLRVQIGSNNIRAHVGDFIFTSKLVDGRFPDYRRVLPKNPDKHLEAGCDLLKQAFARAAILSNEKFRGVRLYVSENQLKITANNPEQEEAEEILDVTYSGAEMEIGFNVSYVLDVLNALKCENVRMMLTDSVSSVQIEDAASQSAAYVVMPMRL
# Chain of UniProt P51681 (whole entry, unmodified, looked up): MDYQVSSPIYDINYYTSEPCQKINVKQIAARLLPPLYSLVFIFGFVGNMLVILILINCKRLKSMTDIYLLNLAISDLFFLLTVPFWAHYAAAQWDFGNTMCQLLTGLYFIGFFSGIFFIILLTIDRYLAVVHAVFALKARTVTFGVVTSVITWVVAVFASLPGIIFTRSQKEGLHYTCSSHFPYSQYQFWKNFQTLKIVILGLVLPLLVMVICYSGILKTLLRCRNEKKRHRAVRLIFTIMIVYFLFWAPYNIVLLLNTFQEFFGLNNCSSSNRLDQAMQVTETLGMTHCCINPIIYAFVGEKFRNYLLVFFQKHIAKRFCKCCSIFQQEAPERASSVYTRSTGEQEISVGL
SMILES,target,assay,test system,conditions,IC50
O=C(CCNC(=O)CNC(=O)CC(c1ccccc1)(c1ccccc1)c1ccccc1)NC[C@H]1CCCN(C(=O)c2ccc(F)cc2)C1,"Muscarinic acetylcholine receptor M2 (CHRM2, Homo sapiens, UniProt P08172)","ligand displacement, radioligand",,cell membranes,> 30 µM
CC[C@H](C)[C@@H]1NC(=O)[C@H](Cc2ccc(O)cc2)NC(=O)CSC[C@@H](C(N)=O)NC(=O)[C@H](CC(N)=O)NC(=O)[C@H](Cc2c[nH]cn2)NC(=O)[C@H](Cc2ccc(O)cc2)NC(=O)[C@H]([C@@H](C)O)NC(=O)[C@H](Cc2ccc(O)cc2)NC(=O)[C@H](CC(C)C)NC(=O)[C@H](CCCNC(=N)N)NC1=O,Melanoma-associated antigen 4 MAGE homology domain,"binding, inhibitor, TR-FRET displacement",,added: Alexa647-MTP-1,2.61 ± 0.53 µM
O=C(NCc1ccccc1)C(C(F)(F)F)C(F)(F)F,Rhomboid protease AarA,"enzyme activity, inhibitor, fluorescence",,,20 µM
COC(=O)CCCCNC(=O)c1ccc(Nc2ncc(F)c(-c3cc(F)c4nc(C)n(C(C)C)c4c3)n2)cc1,HDAC1,"enzyme activity, inhibitor",,,> 1 µM
CCCSc1nc(Sc2nccs2)c2nnn(CCO)c2n1,"Lysine-specific histone demethylase 1A (KDM1A, Homo sapiens, UniProt O60341)","enzyme activity, inhibitor, fluorescence",,,1.03 µM
Cc1nnc(C(C)C)n1C1CC2CCC(C1)N2CCC(NC(=O)COCCOCCOCCOCCNC(=O)Cc1ccc(-c2nncnn2)cc1)c1ccccc1 (centres unmarked),"C-C chemokine receptor type 5 (CCR5, Homo sapiens, UniProt P51681, Y184K)","calcium mobilization, antagonist",HEK293T cells expressing CCR5,added: PSC-RANTES,0.0176 µM
Cc1c(Cc2cccc(O[C@H](C)C(=O)O)c2Cl)c2ccc(C(=O)N[C@@H](C)c3ccc(C(C)(C)C)cc3)cc2n1C,PPARG,"ligand displacement, TR-FRET",,,0.058 µM
O=C(NCCc1ccccc1)C(C(F)(F)F)C(F)(F)F,Rhomboid protease AarA,"enzyme activity, inhibitor, fluorescence",,,15 µM
Cc1nc2ccccc2c(=O)n1N,"Serine protease 1 (PRSS1, Bos taurus, UniProt P00760)","enzyme activity, inhibitor",,,99.9 µM
Cc1nc2c(F)cc(-c3nc(Nc4ccc(NC(=O)CCCCC(=O)NO)cc4)ncc3F)cc2n1C(C)C,HDAC1,"enzyme activity, inhibitor",,,0.228 µM
CCSc1nc2c(s1)c(=O)n(-c1ccccc1)c(=O)n2CC(=O)NCc1ccccc1,"Beta sliding clamp (Escherichia coli, UniProt P0A988)",,,,88.5 ± 2.6 µM
CCCC(=O)OC1CCC2(C)C(CCC3(C)C2CC=C2C4C(C)C(C)CCC4(C(=O)O)CCC23C)C1(C)C (centres unmarked),"UDP-glucuronosyltransferase 1A1 (UGT1A1, Homo sapiens, UniProt P22309)","enzyme activity, inhibitor",,,> 100 µM
O=C(Nc1ccc(OC(F)(F)F)cc1)N1CCC(Cc2cccc(Oc3ccc(C(F)(F)F)cn3)c2)CC1,"Cocaine esterase (CES2, Homo sapiens, UniProt O00748)","enzyme activity, inhibitor",,,0.6 µM
Cc1c(Cc2cccc(OC(C)(C)C(=O)O)c2)c2ccc(C(=O)N[C@@H](C)c3ccc(C(C)(C)C)cc3)cc2n1CC1CCC1,PPARG,"ligand displacement, TR-FRET",,,0.00319 µM
CC1(F)CN(C(=O)Cn2c(=O)c(C(=O)NCc3ccc(Cl)cc3)cc3nc(N4CCN(CCN)C4=O)cnc32)C1,"Voltage-gated inwardly rectifying potassium channel KCNH2 (KCNH2, Homo sapiens, UniProt Q12809)","ion current, inhibitor, patch clamp",,,> 40 µM
O=C(NCC1CC1)c1ccc(NC(=O)C(C(F)(F)F)C(F)(F)F)cc1,Rhomboid protease AarA,"enzyme activity, inhibitor, fluorescence",,,19 µM
O=C(COc1ccc2ccccc2c1)NCc1ccc(OP(=O)(O)O)c(OP(=O)(O)O)c1,"Signal transducer and activator of transcription 5B, SH2 (STAT5B, Homo sapiens, UniProt P51692)","ligand displacement, FP",,,0.63 µM
Cc1c(Cc2cc(Cl)cc(OC(C)C(=O)O)c2)c2ccc(C(=O)NC(C)c3ccc(C(C)(C)C)cc3)cc2n1C (centres unmarked),PPARG ligand-binding domain,"reporter gene, luciferase reporter","HEK293T, Gal4-PPARγ LBD",,0.32 µM
CC(C)(C)OC(=O)c1ccccc1NC(=O)C(C(F)(F)F)C(F)(F)F,Rhomboid protease AarA,"enzyme activity, inhibitor, fluorescence",,,1.3 µM
Cc1nn(-c2cccc(N)c2)c(=O)c2cnc(Nc3ccc(N4CCNCC4)cc3)nc12,"MAP kinase-activated protein kinase 3 (MAPKAPK3, Homo sapiens, UniProt Q16644)","enzyme activity, inhibitor",,,0.507 µM
O=C(Nc1cccnc1)C(C(F)(F)F)C(F)(F)F,Rhomboid protease AarA,"enzyme activity, inhibitor, fluorescence",,,37 µM
CC(C)Cn1cc(Cc2cccc(OC(C)(C)C(=O)O)c2)c2ccc(C(=O)N[C@@H](C)c3cccc(C(C)(C)C)c3)c(F)c21,PPARG ligand-binding domain,"reporter gene, luciferase reporter","HEK293T, Gal4-PPARγ LBD",,0.05 µM
COc1c(Cl)cccc1NC(=O)C(C(F)(F)F)C(F)(F)F,Rhomboid protease AarA,"enzyme activity, inhibitor, fluorescence",,,5 µM
Cc1cc(C)nc(NC(=S)N2CCN(c3ccc(C(F)(F)F)cn3)CC2)c1,"L-lactate dehydrogenase A chain (LDHA, Homo sapiens, UniProt P00338)","enzyme activity, inhibitor",,,> 57 µM
Cc1c(Cc2cccc(OC(C)C(=O)O)c2)c2ccc(C(=O)NC(C)c3cccc(C(C)(C)C)c3)cc2n1C (mixture of isomers),PPARG ligand-binding domain,"reporter gene, luciferase reporter","HEK293T, Gal4-PPARγ LBD",,1020 µM
CC[C@H](C)[C@@H]1NC(=O)[C@H](Cc2ccc(O)cc2)NC(=O)CCSCc2cccc(c2)CSCCNC(=O)[C@H](Cc2c[nH]cn2)NC(=O)[C@H](Cc2ccc(O)cc2)NC(=O)[C@H](CC(=O)O)NC(=O)[C@H](Cc2ccc(F)cc2)NC(=O)[C@H](CC(C)C)NC(=O)[C@H](CCCNC(=N)N)NC1=O,Melanoma-associated antigen 4 MAGE homology domain,"binding, inhibitor, TR-FRET displacement",,added: Alexa647-MTP-1,0.043 ± 0.017 µM
CCc1cccc([C@H](C)NC(=O)c2ccc3c(Cc4cccc(OC(C)(C)C(=O)O)c4)c(C)n(C)c3c2)c1,PPARG,"ligand displacement, TR-FRET",,,0.001 µM
Cc1nc2c(F)cc(-c3nc(Nc4ccc(NC(=O)CCCCCCC(=O)NO)nc4)ncc3F)cc2n1C(C)C,HDAC1,"enzyme activity, inhibitor",,,0.0069 µM
Cc1c(Cc2cc(Cl)cc(O[C@H](C)C(=O)O)c2)c2ccc(C(=O)N[C@@H](C)c3ccc(C(C)(C)C)cc3)cc2n1CC1CCC1,PPARG,"ligand displacement, TR-FRET",,,0.0201 µM
Nc1ncnc2c1c(-c1ccc(Oc3ccccc3)cc1)nn2C1CCCC1,"Tyrosine-protein kinase HCK (HCK, Homo sapiens, UniProt P08631, K245P/K248P)",ligand displacement in cells,,,0.044 µM
O=C1CC(c2ccccc2)N1S(=O)(=O)c1cccc(-c2ccccc2)c1 (centres unmarked),Rhomboid protease AarA,"enzyme activity, inhibitor, fluorogenic peptide",,188 min pre-incubation,5.6 µM
Cc1c(Cc2cc(F)cc(OC(C)(C)C(=O)O)c2)c2ccc(C(=O)N[C@@H](C)c3cccc(C(C)(C)C)c3)cc2n1CC(C)C,PPARG,"ligand displacement, TR-FRET",,,0.00212 µM
